Assay results gathered from unrelated publications.
A part holds a random share of what one study measured.

Set 1
Target: Centromere-binding protein 1, full length, His-tagged (CBF1, Saccharomyces cerevisiae, UniProt P17106, residues 1-351)
Sequence of UniProt P17106 (whole entry, looked up): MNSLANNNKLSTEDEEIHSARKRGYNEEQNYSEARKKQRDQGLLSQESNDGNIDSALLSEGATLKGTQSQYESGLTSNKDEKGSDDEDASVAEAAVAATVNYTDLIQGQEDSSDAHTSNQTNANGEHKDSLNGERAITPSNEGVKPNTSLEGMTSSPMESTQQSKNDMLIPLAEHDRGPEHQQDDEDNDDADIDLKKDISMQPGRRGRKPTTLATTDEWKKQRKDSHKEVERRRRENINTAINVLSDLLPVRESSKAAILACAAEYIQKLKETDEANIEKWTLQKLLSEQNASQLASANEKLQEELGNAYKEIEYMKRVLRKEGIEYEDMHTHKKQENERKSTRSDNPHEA
Method: competition protein-binding microarray
Form: double-stranded DNA, one strand shown
Sample: in vitro
Tested at: 2 µM
Setting: whole 60-bp probe, lowest competitor level
With: Pho4 competitor, 0.05 µM
Reading: higher = stronger binding
All sequences stand within: … GTCTTGATTCGCTTGACGCTGCTG
Oligonucleotide	fluorescence intensity
CTTTCCCGATCTTGTCACCGAACTTTAGCACATTTG	73.1 a.u.
CATACCCAACCTTGTTCGGTGGGTGAAGATATTTGT	78.8 a.u.
CGGGGTTAAGTTTGACAAGTGGGTGGCTTGCAGCAG	65 a.u.
AACCTCGGGGCTTGGGGCGTGGGACATCGAAAGGGG	105 a.u.
AAATTACTAAGTTTTCACGTGCTGTACCCCGTATGA	945 a.u.
AACTGTGAAAGGTTCCACGTGGCCGGGTGAGATTCG	588 a.u.
CGTCCTAGTGATTGCAGGGTGGGTGCCATGAGGAAG	91.5 a.u.
CTTGGGCCCTATCGGCACGCTAAAGATGCTTGTGGA	71.3 a.u.
CATACCCAACCTTGACTCGTGGGTGAAGATATTTGT	84.4 a.u.
GAAGGAGGACTTTCCCTTGTGACAGTCTTGACTTTT	73.7 a.u.
CGGAAGACGTAGTGGCAGGTGAGGCGGCGAGTTCAG	65.3 a.u.
AAAGCGGTAATTTGTCATGTGGGTGCAGATATCTAT	217 a.u.
AATCCGCGTAGCCATCACGTCGCGCAATGTGCGATA	94.8 a.u.
TTTCTCGAATTTTTGCACGTGAAAACGGTGAACCTC	1370 a.u.
CGGGGTTAAGTTTGGCGGGTGGGTGGCTTGCAGCAG	62.2 a.u.
GCATAGTCATATCACCACGTGGAACATCATGAAAAA	1230 a.u.
CCGCTTTGGAATTTATTCGTGCCGAAAAGACTCAAG	68.3 a.u.
TGCGCAACAACTTGTATGGTGGGTGTATGTCTAGAA	66.9 a.u.
GGCGGGAGGGAGCCGCATGTGCTCTATTACTTTCTT	93.8 a.u.

Set 2
Target: Histone acetyltransferase KAT6A, winged helix 1, GST fusion (KAT6A, Homo sapiens, UniProt Q92794, residues 1-85)
Method: protein binding microarray
Form: double-stranded DNA, one strand shown
Sample: in vitro
Tested at: not given
Setting: 8-mer, flanks averaged, mean of 2 arrays, mostly near background
Relative to: not given
Reading: higher = stronger binding
Target sequence (chain): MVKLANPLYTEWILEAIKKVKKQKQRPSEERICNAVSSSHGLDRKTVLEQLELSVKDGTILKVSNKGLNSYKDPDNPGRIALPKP
Oligonucleotide	E-score
AGGCTCGA	-0.113
AAGCCTAG	-0.0609
AGAGACAG	-0.149
AACACGTT	-0.102
ACTGTCAT	-0.104
GGCAATTA	0.0771
ATATCGGC	0.129
CCCTACAC	-0.0363
ATGACCAG	-0.275
AACGCTAC	0.0245
AGTGGGTC	-0.126
TCTTTTAA	-0.168
CTGCGTGC	0.0788
TGTCTTAA	-0.0978
CCATTCAA	-0.182
CCCTCATC	-0.176

Set 3
Target: Sal-like protein 4, full length isoform B (SALL4, Homo sapiens, UniProt Q9UJQ4-2, residues 1-616)
Method: universal PBM
Form: double-stranded DNA, one strand shown
Sample: in vitro
Tested at: not given
Setting: 8-mer, flanks averaged, mean of replicates
Reading: higher = stronger binding
Target sequence (chain): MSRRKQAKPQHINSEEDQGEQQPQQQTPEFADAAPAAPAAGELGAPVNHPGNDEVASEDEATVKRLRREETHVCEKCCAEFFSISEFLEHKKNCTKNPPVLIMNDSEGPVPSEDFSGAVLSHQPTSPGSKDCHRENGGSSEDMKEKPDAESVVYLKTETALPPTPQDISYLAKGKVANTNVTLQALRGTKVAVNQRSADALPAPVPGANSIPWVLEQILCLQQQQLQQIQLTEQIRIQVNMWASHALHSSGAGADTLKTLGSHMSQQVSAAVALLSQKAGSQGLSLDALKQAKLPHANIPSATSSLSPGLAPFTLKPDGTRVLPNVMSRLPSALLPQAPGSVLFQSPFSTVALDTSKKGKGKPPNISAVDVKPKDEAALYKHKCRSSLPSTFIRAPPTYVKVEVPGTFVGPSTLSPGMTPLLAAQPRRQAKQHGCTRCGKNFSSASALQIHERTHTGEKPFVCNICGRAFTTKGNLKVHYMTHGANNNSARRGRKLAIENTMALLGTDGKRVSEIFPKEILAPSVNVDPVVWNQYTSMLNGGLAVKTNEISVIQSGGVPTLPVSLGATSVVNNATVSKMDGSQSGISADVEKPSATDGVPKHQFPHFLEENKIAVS
Oligonucleotide	E-score
AAAAACCG	-0.0902
AACGTGGC	-0.112
AGATAGAA	0.108
AGACGGCT	-0.264
GTATGAGA	0.24
GGTGACTA	-0.0539
AGCTGTTC	-0.152
GCTATGAC	0.124
TAGATTAA	0.206
GAGTAAAC	0.0491
CAACAATA	0.337
CCGGCATC	-0.283
CTGGCCGC	-0.189
ACTGTCGG	-0.247
ACAGGCGT	-0.121
GGCAACCC	-0.271
AATGTCTC	0.00812
AGGGAATC	-0.15
GCCGGCGC	-0.314
AGAGTCCA	-0.161
CTGTCATC	-0.0873
GAGTATAC	0.185
AAGGCGTA	0.00886
CCAGGCGG	-0.247
CTCAAACA	0.0814

Set 4
Target: Ras GTPase-activating protein-binding protein 1, full length (G3BP1, Homo sapiens, UniProt Q13283)
Sequence of UniProt Q13283 (whole entry, looked up): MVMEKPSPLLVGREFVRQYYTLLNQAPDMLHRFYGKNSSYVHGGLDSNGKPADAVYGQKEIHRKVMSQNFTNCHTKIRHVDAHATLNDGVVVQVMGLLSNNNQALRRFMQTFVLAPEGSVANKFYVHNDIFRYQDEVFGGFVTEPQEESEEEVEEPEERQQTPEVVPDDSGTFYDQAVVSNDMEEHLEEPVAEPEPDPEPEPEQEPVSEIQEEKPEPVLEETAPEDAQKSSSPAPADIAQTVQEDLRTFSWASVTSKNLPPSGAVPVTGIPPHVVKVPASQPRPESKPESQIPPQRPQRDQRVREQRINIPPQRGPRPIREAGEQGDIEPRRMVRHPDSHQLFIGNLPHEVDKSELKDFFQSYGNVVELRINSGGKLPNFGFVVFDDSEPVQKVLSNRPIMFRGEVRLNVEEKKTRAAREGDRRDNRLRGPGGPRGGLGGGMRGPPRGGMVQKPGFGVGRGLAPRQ
Method: RNA Bind-n-Seq
Form: RNA
Sample: in vitro
Tested at: 200 nM
Setting: whole 134-nt RNA, ends assumed
With: 150 mM LiCl
Relative to: input library
Reading: higher = stronger binding
Library: 7-deaza-guanosine replaces G
All sequences stand within: GGGAGUUCUACAGUCCGACGAUC … UGGAAUUCUCGGGUGUCAAGG
Oligonucleotide	log2 enrichment
UGGCCCUGGUGGCAUGCGGGGAGGAAGAGGUGGCCUCAUGGAUCGUGGUGGUCCCGGUGGAAUGUUCAGAGGUGGACGUGGUGGAGACAG	-0.192
AGUCCUGUGCUACACAUCGUAUGUACCGAAUCGGAAAGGUUUUUUUGGAAAAAAAGGAAAGUAUUAUGUUACGCCGUUCGGAUCUGCACU	-1.95
UCAAGUCCUGUGCUACACAUCGUAUGUACCGAAUCGGGUGGGUGGGUUUUUGGGAAAGUAUUAUGUUACGCCGUUCGGAUCUGCACUUCC	-1.22
UCCUCAAGUCCUGUGCUACACAUCGUAUGUACCGAAUCGGAGGAGGAGGGGAAAGUAUUAUGUUACGCCGUUCGGAUCUGCACUUCCAGC	-0.808
ACCAUGCAGGUGGAAAUCUUUGGGAAGUGGGGCAAGGGGGGGAUAGGGAGGGGGGUAACACUUUGGGAACAGGUGGUCCCAGGUCGUUUC	0.256
CACAGACAACACGCACCCACACAGACACAGAGGCAAGGGGUUGGGAUGGGGACAGGGUGCACAGCAGGGCGGGGUAGGACCCCAGCCCCU	0.815
UAACUUUAGAGGAGGAUCUGAUGGAUAUGGAAGUGGACGUGGAUUUGGGGAUGGCUAUAAUGGGUAUGGAGGAGGACCUGGAGGUGGCAA	0.0382
UCAAGUCCUGUGCUACACAUCGUAUGUACCGAAUCGGAAAGGUUUGGAAAAAGGAAAGUAUUAUGUUACGCCGUUCGGAUCUGCACUUCC	-0.558

Excerpt of the above (set 1):
Oligonucleotide	fluorescence intensity
CCGCTTTGGAATTTATTCGTGCCGAAAAGACTCAAG	68.3 a.u.
AAATTACTAAGTTTTCACGTGCTGTACCCCGTATGA	945 a.u.
GAAGGAGGACTTTCCCTTGTGACAGTCTTGACTTTT	73.7 a.u.
TTTCTCGAATTTTTGCACGTGAAAACGGTGAACCTC	1370 a.u.
CATACCCAACCTTGACTCGTGGGTGAAGATATTTGT	84.4 a.u.
GCATAGTCATATCACCACGTGGAACATCATGAAAAA	1230 a.u.
CTTTCCCGATCTTGTCACCGAACTTTAGCACATTTG	73.1 a.u.
CGTCCTAGTGATTGCAGGGTGGGTGCCATGAGGAAG	91.5 a.u.
